Measured values pooled from the literature.
Each line is one published result; not all experiments were run side by side.
Chain of UniProt Q07002 (whole entry, looked up): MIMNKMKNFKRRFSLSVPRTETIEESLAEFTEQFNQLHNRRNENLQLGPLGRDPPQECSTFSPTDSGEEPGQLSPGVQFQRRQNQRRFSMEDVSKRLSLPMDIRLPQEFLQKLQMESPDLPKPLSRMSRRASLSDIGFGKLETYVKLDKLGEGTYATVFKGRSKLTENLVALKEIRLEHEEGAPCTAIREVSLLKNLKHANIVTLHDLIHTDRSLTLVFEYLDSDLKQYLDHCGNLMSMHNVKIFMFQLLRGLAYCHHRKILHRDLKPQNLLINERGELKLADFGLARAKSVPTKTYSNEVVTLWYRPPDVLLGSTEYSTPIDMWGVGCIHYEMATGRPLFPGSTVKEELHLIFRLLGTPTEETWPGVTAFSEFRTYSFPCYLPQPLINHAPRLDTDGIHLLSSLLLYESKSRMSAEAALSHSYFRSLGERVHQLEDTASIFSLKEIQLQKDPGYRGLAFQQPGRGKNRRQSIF
Chain of UniProt Q6IQ55 (whole entry, looked up): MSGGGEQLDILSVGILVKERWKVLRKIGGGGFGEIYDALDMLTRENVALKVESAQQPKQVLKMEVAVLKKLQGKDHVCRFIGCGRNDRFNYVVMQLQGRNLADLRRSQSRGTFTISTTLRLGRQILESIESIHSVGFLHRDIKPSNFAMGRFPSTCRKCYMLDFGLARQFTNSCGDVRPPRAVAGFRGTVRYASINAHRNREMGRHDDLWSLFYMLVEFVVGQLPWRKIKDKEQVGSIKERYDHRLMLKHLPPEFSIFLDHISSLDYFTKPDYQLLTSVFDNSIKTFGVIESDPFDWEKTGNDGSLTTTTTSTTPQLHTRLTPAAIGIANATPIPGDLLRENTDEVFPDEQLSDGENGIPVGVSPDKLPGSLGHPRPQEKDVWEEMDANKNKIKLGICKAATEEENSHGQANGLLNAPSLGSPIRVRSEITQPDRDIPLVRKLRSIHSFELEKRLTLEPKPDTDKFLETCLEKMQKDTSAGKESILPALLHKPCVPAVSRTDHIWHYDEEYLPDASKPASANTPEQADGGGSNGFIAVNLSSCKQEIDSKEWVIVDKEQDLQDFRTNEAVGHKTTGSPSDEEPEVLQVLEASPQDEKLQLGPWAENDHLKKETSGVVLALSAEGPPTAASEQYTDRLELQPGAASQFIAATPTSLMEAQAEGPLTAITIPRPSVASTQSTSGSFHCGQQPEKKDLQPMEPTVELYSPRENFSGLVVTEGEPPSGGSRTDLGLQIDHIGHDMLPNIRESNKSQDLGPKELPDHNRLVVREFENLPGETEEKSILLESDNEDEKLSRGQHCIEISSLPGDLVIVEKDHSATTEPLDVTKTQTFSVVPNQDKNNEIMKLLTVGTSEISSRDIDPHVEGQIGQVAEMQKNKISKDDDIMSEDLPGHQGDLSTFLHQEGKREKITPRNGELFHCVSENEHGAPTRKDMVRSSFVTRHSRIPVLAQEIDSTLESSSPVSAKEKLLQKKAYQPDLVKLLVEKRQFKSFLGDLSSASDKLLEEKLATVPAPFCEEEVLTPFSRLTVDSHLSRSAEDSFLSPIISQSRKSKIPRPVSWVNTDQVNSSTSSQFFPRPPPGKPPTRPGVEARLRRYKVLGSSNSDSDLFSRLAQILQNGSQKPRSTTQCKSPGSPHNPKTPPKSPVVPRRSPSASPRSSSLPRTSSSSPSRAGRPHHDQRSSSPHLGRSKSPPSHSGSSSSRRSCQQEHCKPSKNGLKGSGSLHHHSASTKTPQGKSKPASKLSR
Chain of UniProt P07948 (whole entry, looked up): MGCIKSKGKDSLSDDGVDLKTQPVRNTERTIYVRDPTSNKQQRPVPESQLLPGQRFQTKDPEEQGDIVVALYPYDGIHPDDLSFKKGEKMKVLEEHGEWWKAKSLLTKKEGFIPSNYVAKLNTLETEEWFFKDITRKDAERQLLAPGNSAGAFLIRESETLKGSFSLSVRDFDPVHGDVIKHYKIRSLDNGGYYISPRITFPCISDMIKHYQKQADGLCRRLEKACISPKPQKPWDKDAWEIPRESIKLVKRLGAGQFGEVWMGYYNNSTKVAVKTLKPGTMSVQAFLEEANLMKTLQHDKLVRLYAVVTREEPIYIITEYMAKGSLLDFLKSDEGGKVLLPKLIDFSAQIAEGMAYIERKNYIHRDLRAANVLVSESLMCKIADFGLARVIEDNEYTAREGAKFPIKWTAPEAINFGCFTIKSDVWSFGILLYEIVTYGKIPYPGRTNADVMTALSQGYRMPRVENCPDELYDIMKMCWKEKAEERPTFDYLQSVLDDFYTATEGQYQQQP
Chain of UniProt Q16620 (whole entry, looked up): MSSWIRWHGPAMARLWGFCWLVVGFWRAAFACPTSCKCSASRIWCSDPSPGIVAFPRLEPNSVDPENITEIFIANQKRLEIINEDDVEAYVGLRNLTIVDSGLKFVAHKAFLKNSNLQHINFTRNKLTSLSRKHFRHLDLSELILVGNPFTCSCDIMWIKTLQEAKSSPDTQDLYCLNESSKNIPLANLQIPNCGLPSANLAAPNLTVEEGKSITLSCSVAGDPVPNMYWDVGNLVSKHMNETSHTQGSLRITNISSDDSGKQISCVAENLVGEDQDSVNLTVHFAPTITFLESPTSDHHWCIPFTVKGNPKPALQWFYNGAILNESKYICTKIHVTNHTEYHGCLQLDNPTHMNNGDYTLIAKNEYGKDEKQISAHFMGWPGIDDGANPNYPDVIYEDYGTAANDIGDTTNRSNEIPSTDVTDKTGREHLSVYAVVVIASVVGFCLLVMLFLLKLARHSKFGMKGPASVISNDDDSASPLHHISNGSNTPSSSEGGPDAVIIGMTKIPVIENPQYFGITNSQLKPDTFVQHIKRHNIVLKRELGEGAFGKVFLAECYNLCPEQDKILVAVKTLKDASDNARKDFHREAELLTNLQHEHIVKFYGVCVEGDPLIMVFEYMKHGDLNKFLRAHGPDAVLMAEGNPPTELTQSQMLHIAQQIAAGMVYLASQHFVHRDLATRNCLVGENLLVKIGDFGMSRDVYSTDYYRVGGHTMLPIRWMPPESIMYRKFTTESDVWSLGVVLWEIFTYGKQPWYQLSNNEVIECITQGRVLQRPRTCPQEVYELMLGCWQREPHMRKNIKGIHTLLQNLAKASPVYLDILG
Chain of UniProt P29597 (whole entry, looked up): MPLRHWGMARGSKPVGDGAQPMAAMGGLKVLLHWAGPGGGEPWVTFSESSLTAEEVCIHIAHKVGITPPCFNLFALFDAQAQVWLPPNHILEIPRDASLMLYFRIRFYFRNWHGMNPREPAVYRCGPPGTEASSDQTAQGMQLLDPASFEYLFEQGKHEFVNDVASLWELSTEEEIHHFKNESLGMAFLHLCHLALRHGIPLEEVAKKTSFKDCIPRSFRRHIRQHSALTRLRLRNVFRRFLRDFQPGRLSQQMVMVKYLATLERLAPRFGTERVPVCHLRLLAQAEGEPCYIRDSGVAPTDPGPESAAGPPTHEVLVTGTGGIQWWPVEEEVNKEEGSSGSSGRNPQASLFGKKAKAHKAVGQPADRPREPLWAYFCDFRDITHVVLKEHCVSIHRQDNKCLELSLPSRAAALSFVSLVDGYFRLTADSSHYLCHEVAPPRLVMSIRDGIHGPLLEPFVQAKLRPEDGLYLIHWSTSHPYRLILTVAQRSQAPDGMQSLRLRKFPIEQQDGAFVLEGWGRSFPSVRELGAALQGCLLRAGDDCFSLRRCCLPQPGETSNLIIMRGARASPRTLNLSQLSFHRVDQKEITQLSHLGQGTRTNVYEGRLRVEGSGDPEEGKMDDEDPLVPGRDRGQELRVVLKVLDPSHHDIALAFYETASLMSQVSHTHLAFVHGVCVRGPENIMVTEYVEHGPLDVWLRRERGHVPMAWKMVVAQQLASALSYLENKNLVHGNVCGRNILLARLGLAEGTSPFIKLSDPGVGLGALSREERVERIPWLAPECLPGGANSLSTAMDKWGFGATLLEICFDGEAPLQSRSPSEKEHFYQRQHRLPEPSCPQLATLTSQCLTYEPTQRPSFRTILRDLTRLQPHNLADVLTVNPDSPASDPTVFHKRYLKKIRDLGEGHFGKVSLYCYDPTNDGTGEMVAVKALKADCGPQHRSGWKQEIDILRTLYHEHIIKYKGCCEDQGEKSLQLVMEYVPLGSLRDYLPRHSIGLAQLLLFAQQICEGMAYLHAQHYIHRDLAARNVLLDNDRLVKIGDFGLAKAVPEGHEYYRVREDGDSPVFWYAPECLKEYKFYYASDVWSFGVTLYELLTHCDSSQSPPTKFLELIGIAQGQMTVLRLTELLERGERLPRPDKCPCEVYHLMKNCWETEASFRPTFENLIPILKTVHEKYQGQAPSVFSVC

Structure (SMILES)	tested on	assay	test system	conditions	endpoint	value
CCON=C1C=CC(=C(C#N)c2ccccc2)C=C1	Candida tropicalis	microbial growth, broth dilution	ATCC13803	48 h	MIC	256 µg/mL
COCC(=O)NC/C=C/c1ccc2ncnc(Nc3ccc(Oc4ccc(C)nc4)c(C)c3)c2c1	Staphylococcus aureus	microbial growth	NCTC8325	–	MIC	> 30 µM
C#CCON=C1C=CC(=C(C#N)c2ccccc2)C=C1	Candida tropicalis	microbial growth, broth dilution	ATCC13803	48 h	MIC	32 µg/mL
O=C(O)c1cn(C2CC2)c2cc(N3CCNCC3)c(F)cc2c1=O	Micrococcus luteus	microbial growth	ATCC4698	–	MIC	1 µg/mL
C=CC(=O)N1CCC(COCC(=O)N2CCN(c3nc(-c4cnc(N)nc4C(F)F)nc(N4CCOC[C@@H]4C)n3)CC2)CC1	CDK18 (Homo sapiens, UniProt Q07002)	binding, competition with immobilised ligand	–	1 µM	remaining binding	91%
C=C(NC(=O)C(=C)NC(=O)c1csc(C2=N[C@@H]3c4csc(n4)[C@H]4NC(=O)c5csc(n5)[C@H]([C@](C)(O)[C@@H](C)O)NC(=O)[C@H]5CSC(=N5)/C(=C/C)NC(=O)[C@H]([C@@H](C)O)NC(=O)c5csc(n5)[C@]3(CC2)NC(=O)[C@H](C)NC(=O)C(=C)NC(=O)[C@H](C)NC(=O)[C@H]([C@@H](C)CC)N[C@@H]2C=Cc3c([C@H](C)O)cc(nc3[C@H]2O)C(=O)O[C@@H]4C)n1)C(N)=O	Enterococcus hirae	microbial growth	ATCC10541	–	MIC	0.045 µM
C[C@H](NC(=O)CO/N=c1\cc2n(-c3ccc(Cl)cc3)c3ccccc3nc-2cc1Nc1ccc(Cl)cc1)C(=O)O	Neisseria gonorrhoeae	microbial growth	ATCC49226	–	MIC	0.94 µM
OC(Cn1cncn1)(Cn1cncn1)c1ccc(F)cc1F	Candida albicans	microbial growth, broth dilution	SP3931	48 h	MIC	4 µM
COc1cc(-c2cncc3c2CN(C)Cc2cc(N4CCNCC4)ccc2-3)cc(OC)c1OC	NTRK2 (Homo sapiens, UniProt Q16620)	enzyme activity, inhibitor	–	1 µM	remaining activity	92%
Cc1cc([C@@H](C)Nc2ccccc2C(=O)O)c2nc(N3CCC(F)(F)CC3)c(C#N)c(=O)n2c1	Non-receptor tyrosine-protein kinase TYK2, JH1 (TYK2, Homo sapiens, UniProt P29597)	binding, competition with immobilised ligand	–	1 µM	remaining binding	79%
CCCNC(=O)Nc1ccc(Oc2ncnc3cc(OC)c(OC)cc23)cc1Cl	Staphylococcus aureus	microbial growth	NCTC8325	–	MIC	> 30 µM
CC(=NNC(=O)c1ccncc1)c1ccc(Nc2nnc(-c3ccc(Cl)cc3)c3ccccc23)cc1	MCF7	cell growth or viability, MTT	–	10 µM	cell death	91.2%
CN[C@H](CC(C)C)C(=O)N[C@H]1C(=O)N[C@@H](CC(N)=O)C(=O)N[C@H]2C(=O)N[C@H]3C(=O)N[C@H](C(=O)N[C@H](C(=O)O)c4cc(O)cc(O)c4-c4cc3ccc4O)[C@H](O)c3ccc(c(Cl)c3)Oc3cc2cc(c3O[C@@H]2O[C@H](CO)[C@@H](O)[C@H](O)[C@H]2O[C@H]2C[C@](C)(N)[C@H](O)[C@H](C)O2)Oc2ccc(cc2Cl)[C@H]1O	Streptococcus pneumoniae	microbial growth, broth dilution	ATCC49619	20 h	MIC	4 µg/mL
CN(C)c1cc(NC(=O)CCc2cccnc2)c(O)c2c1C[C@H]1C[C@H]3[C@H](N(C)C)C(O)=C(C(N)=O)C(=O)[C@@]3(O)C(O)=C1C2=O	Mycobacterium tuberculosis	microbial growth, broth dilution	H37RV	7 days, pH 7.4	MIC	1.6 µg/mL
Cc1[nH]nc2ccc(-c3cncc(OC[C@@H](N)Cc4ccccc4)c3)cc12	Staphylococcus aureus	microbial growth	NCTC8325	–	MIC	> 30 µM
CCCN(O)N=Nc1ccc(S(=O)(=O)Nc2nccs2)cc1	–	ABTS scavenging	–	300 µg/mL	inhibition	64.6%
CNC(C)C1CCC(N)C(OC2C(N)CC(N)C(OC3OCC(C)(O)C(NC)C3O)C2O)O1 (centres unmarked)	Pseudomonas aeruginosa	microbial growth	10145	–	MIC	1.56 to 3.2 µM
CC(=O)Nc1ccc(Oc2nnc(-c3ccc(Cl)cc3)c3ccccc23)cc1	MCF7	cell growth or viability, MTT	–	0.156 µM	cell death	72.7%
Cc1ncc(-c2ccnc(Nc3ccc(S(C)(=O)=O)cc3)n2)n1C(C)C	Staphylococcus aureus	microbial growth	NCTC8325	–	MIC	> 30 µM

Structure (SMILES)	tested on	assay	test system	conditions	endpoint	value
Clc1ccc(Nc2cc3nc4ccccc4n(-c4ccc(Cl)cc4)c-3c/c2=N\OCc2ccccc2)cc1	Neisseria gonorrhoeae	microbial growth	ATCC49226	–	MIC	30 µM
CN(C)c1cc(NC(=O)Cc2ccccn2)c(O)c2c1C[C@H]1C[C@H]3[C@H](N(C)C)C(O)=C(C(N)=O)C(=O)[C@@]3(O)C(O)=C1C2=O	Mycobacterium tuberculosis	microbial growth, broth dilution	H37RV	7 days, pH 7.4	MIC	0.8 µg/mL
C[C@@H](O)[C@H]1C(=O)N2C(C(=O)O)=C(S[C@@H]3CN[C@H](C(=O)N(C)C)C3)[C@H](C)[C@H]12	Klebsiella pneumoniae	microbial growth, broth dilution	–	20 h, clinical isolate	MIC	< 0.5 µg/mL
CN(C)c1cc(NC(=O)Cc2cccnn2)c(O)c2c1C[C@H]1C[C@H]3[C@H](N(C)C)C(O)=C(C(N)=O)C(=O)[C@@]3(O)C(O)=C1C2=O	Mycobacterium tuberculosis	microbial growth, broth dilution	H37RV	7 days, pH 7.4	MIC	1.6 µg/mL
OC(Cn1cncn1)(Cn1cncn1)c1ccc(F)cc1F	Lodderomyces parapsilosis	microbial growth	ATCC22019	–	MIC	1 µg/mL
CNc1ncc2c(/C=C/C(=O)N3CCC(OC)CC3)nn(Cc3cccc(C(F)(F)F)c3)c2n1	TTBK2 (Homo sapiens, UniProt Q6IQ55)	enzyme activity, inhibitor, radiometric	–	1 µM	remaining activity	105%
CC[C@H]1OC(=O)[C@H](C)[C@@H](O[C@H]2C[C@@](C)(OC)[C@@H](O)[C@H](C)O2)[C@H](C)[C@@H](O[C@@H]2O[C@H](C)C[C@H](N(C)C)[C@H]2O)[C@](C)(O)C[C@@H](C)/C(=N\OCOCCOC)[C@H](C)[C@@H](O)[C@]1(C)O	Streptococcus pneumoniae	microbial growth, agar dilution	ATCC49619	–	MIC	2 µg/mL
CC(C)(C)OC(=O)N[C@@H]1CCN(c2cc(C(=O)NCC(=O)O)ccc2NC(=O)c2cc(Br)c(Br)[nH]2)C1	Klebsiella pneumoniae	microbial growth, broth dilution	ATCC700603	–	MIC	> 32 µg/mL
NC1(Cc2ccc(Cl)cc2)CCN(c2ncnc3[nH]ccc23)CC1	Staphylococcus aureus	microbial growth	NCTC8325	–	MIC	> 30 µM
CN(C)c1cc(NC(=O)Cc2ccncc2)c(O)c2c1C[C@H]1C[C@H]3[C@H](N(C)C)C(O)=C(C(N)=O)C(=O)[C@@]3(O)C(O)=C1C2=O	Mycobacterium tuberculosis	microbial growth, broth dilution	H37RV	7 days, pH 7.4	MIC	0.8 µg/mL
Cc1ccc(N(O)N=Nc2ccc(S(=O)(=O)Nc3onc(C)c3C)cc2)cc1	–	ABTS scavenging	–	180 µg/mL	inhibition	84.9%
C[C@H]1COC2=C1C(=O)C(=O)c1c2ccc2c1CCCC2(C)C	Cutibacterium acnes	microbial growth	–	48 h	MIC	250 µM
CCCCC(=O)Nc1ccc(-c2ccc3ncn(CCC)c(=O)c3c2)cn1	LYN (Homo sapiens, UniProt P07948)	binding, competition with immobilised ligand	–	0.5 µM	remaining binding	100%
Cc1c(NC(=O)OC[C@@H]2COCCN2)cn2ncnc(Nc3ccc4c(cnn4Cc4cccc(F)c4)c3)c12	Staphylococcus aureus	microbial growth	NCTC8325	–	MIC	> 30 µM
CN(Cc1ccc(C2(C(F)(F)F)CC2)cc1)Cc1cccc2ccccc12.Cl	Trichophyton rubrum	microbial growth, broth dilution	ATCC28188	6 days	MIC	250 µg/mL
C[C@@H]1CN(CC(=O)Nc2ccc3c(c2)Cc2cccc(-c4cc(=O)cc(N5CCOCC5)o4)c2S3)C[C@H](C)O1	Staphylococcus aureus	microbial growth	NCTC8325	–	MIC	> 30 µM
CC(=O)NC[C@H]1CN(c2ccc(N3CCOCC3)c(F)c2)C(=O)O1	Staphylococcus epidermidis	microbial growth	MRSE	–	MIC	1 µg/mL
Nc1nc(Nc2ccc(S(N)(=O)=O)cc2)nn1C(=O)c1c(F)cccc1F	Staphylococcus aureus	microbial growth	NCTC8325	–	MIC	> 30 µM
CN(C)c1cc(NC(=O)CNC(C)(C)C)c(O)c2c1C[C@H]1C[C@H]3[C@H](N(C)C)C(O)=C(C(N)=O)C(=O)[C@@]3(O)C(O)=C1C2=O	Mycobacterium tuberculosis	microbial growth, broth dilution	H37RV	7 days, pH 7.4	MIC	0.2 µg/mL
